Results gathered from unrelated publications.
A part holds a random share of what one study measured.

Sample 1
Target: RNA binding protein fox-1 homolog 2, RRM domain, GST-SBP tag (RBFOX2, Homo sapiens, UniProt O43251-10, residues 100-194)
Method: RNA Bind-n-Seq
Molecule type: RNA
Matrix: in vitro
Concentration: 365 nM
Setting: natural RNA segment, single round, ends assumed
Relative to: no-protein control
Direction: higher = stronger binding
Sequence | RBNS enrichment (R)
GGGAGUUCUACAGUCCGACGAUCGUAAACAGGUCAGCACCCCCACUACUCUUUUUAAAAUCACUUUAGUGAUGGAGAUGUCUUGCAAAGAUGUAGAGAACAAGGCCUCUUUUCCCUAGAUGAGACCUGAGGAAUGGAAUUCUCGGGUGCCAA | 9.97
GGGAGUUCUACAGUCCGACGAUCGAGUGUGAUUUUGCUGAUUGAAUGUGAGUUUUCAAAUAGGAGUCUUUUUCUGCAAUUUGUUUGCAUUUUUUAGAAGUGCAAACAGUAAGUAAAUAAAAGCCUUCGGUAAUUGGAAUUCUCGGGUGCCAA | 0.522
GGGAGUUCUACAGUCCGACGAUCUCAAUUAAGCGUGAUUCUAUCUUAGAAGAAAUAAACUCAGUAUUAAUUCAUGUCUAAAUCACUGGGGUUGAGACUCCUUCAGCCUCCCUGGUUGAUUAGAGAUUCUGAGAUGGAAUUCUCGGGUGCCAA | 0.409
GGGAGUUCUACAGUCCGACGAUCUCUUUUUUUCAUCCUUUAAAUUGUAAAUUAAGGAUUACUCAAGCUCACCAUUAUUCAAGAUUGGGACUCGCUUCCCAGUCGACACUCUGCCCUGCCUGUCAUUGCUGCAAUGGAAUUCUCGGGUGCCAA | 0.462

Sample 2
Target: Ras GTPase-activating protein-binding protein 1, RRM domain (G3BP1, Homo sapiens, UniProt Q13283)
Chain of UniProt Q13283 (whole entry, looked up): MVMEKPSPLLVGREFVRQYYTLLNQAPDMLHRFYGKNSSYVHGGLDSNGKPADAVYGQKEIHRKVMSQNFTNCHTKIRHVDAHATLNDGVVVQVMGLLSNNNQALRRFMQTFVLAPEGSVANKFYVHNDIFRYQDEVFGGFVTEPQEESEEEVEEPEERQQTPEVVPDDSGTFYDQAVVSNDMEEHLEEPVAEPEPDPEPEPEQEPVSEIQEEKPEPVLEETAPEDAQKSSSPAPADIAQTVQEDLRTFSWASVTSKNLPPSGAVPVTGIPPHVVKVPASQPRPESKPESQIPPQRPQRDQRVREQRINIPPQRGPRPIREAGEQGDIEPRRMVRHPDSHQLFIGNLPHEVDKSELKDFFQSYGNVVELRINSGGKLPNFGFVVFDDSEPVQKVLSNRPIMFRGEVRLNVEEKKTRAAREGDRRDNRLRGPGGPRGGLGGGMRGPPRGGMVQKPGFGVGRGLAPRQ
Method: RNA Bind-n-Seq
Molecule type: RNA
Matrix: in vitro
Concentration: 1 µM
Setting: whole 134-nt RNA, ends assumed
Together with: 150 mM KCl
Relative to: input library
Direction: higher = stronger binding
Sequence | log2 enrichment
GGGAGUUCUACAGUCCGACGAUCAAGUCCUGUGCUACACAUCGUAUGUACCGAAUCGGGGAAAAGGAAAAGGGAAAAGGGAAAGUAUUAUGUUACGCCGUUCGGAUCUGCACUUGGAAUUCUCGGGUGUCAAGG | -0.196
GGGAGUUCUACAGUCCGACGAUCCACAGACAACACGCACCCACACAGACACAGAGGGAAGGGGUUGGGAUGGGGACAGGGUGCACAGCACGGCGGGGUAGGACCCCAGCCCCUUGGAAUUCUCGGGUGUCAAGG | -0.518
GGGAGUUCUACAGUCCGACGAUCUUGCAGAUGAGCUUAUGGGGGGCAAUCUUAAAAAGUCCACAGCAGAUGCAUCCGGCUCGAGGGGCCAUCAGCUUUGAAUAAAUGCUUGUUUGGAAUUCUCGGGUGUCAAGG | -0.157
GGGAGUUCUACAGUCCGACGAUCAGUCCUGUGCUACACAUCGUAUGUACCGAAUCGGGCCCCGGGCCCCGGGCCCCGGGGAAAGUAUUAUGUUACGCCGUUCGGAUCUGCACUUGGAAUUCUCGGGUGUCAAGG | -1.01

Sample 3
Target: Interferon regulatory factor 5, full length, phosphomimetic (IRF5, Homo sapiens, UniProt Q13568-2, residues 1-514, K96S/S451D/S453D/S456D/S462D)
Method: protein-binding microarray
Molecule type: double-stranded DNA, one strand shown
Matrix: in vitro
Concentration: 250 nM
Setting: 60-bp whole probe
Together with: salmon DNA 0.4 mg/ml
Relative to: random background probes
Direction: higher = stronger binding
Constant ends, left off below: GCCTAGCAC … GTCTTGATTCGCTTGACGCTGCTG
Sequence | log fluorescence [z-score]
GACGGTTTCGGTTTCGTGACGTGCTAG | 10.3
GACGGTTTCCTACTGTTGACGTGCTAG | 0.429
GACGGACTGGACTATCGGGTCGTGCTA | 1.63
GACGATCCCAGTTTCGAGACGTGCTAG | 4.74
TCAACTCTTGCTTTTTAACTGTGCTAG | 0.55

Mixed results
Molecule | target | assay | test system | setting | how to read | measurement | result
PhoQ, residues 284 288 289 292 302 303 AGHLVA | PhoP, residues 12 14 15 18 19 GQALL (Escherichia coli, UniProt P23836) | Sort-seq, item: YFP reporter | E. coli | PhoQ-PhoP variant library, together with: 10 µM Mg2+ | relative to: high Mg2+ state, higher = stronger signaling | fold induction | 17.4

Excerpt of the above (sample 3):
Sequence | log fluorescence [z-score]
GACGGTTTCGGTTTCGTGACGTGCTAG | 10.3
